Results pooled from the literature.
Numbered parts are unrelated; each lists some results of a single study.

Set 1
Target: RNA binding protein fox-1 homolog 2, RRM domain, GST-SBP tag (RBFOX2, Homo sapiens, UniProt O43251-10, residues 100-194)
Technique: RNA Bind-n-Seq
Form: RNA
Sample: in vitro
Tested at: 365 nM
Notes: natural RNA segment, single round, ends assumed
Relative to: no-protein control
Reading: higher = stronger binding
Endpoint: RBNS enrichment (R)
Target sequence (chain): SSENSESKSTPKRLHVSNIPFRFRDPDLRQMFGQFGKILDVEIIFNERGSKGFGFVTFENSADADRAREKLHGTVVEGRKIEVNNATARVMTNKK
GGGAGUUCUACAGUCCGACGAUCAAUAAAAAAUAAAAUGCAAGUGAAAACAGGGGGGGAAUUGGAUUAUUUCCUGCACUGGGUUGUGCGUGUGUGUGUGUGUGCGCGUGUAUGUGCGUGUGUGUGCGCGUGUGUGGAAUUCUCGGGUGCCAA: 1.97
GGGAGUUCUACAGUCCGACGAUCUGGCUCAAAUCCUGUAAAGGGCUUGACCAGUCUCUACAUAGUCACCGUCCGCUUUUCCUGAGUUCUCCCUCCCAAUUGGCUCCAGCUUCCUGGGGGCGUGGCCAAGCCCUUGGAAUUCUCGGGUGCCAA: 0.311
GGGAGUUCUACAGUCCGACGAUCACUCUGUGACGGAGCUGAAGGACUCUUGCCGUAGAUUAAGCCAGUCAGUUGCAAUGUGCAAGACAGGCUGCUUGCCGGGCCGCCCUCGGAACAUCUGGCCCAGCAGGCCCUGGAAUUCUCGGGUGCCAA: 0.526
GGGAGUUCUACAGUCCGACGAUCGAAGUCCCUACCAUCCUUGUUUAGUCUAUAUUAAGAAAAUCUGUGUCUUUUUAAUAUUCUUGUGAUGUUUUCAGAGCCGCUGUAGGUCUCUUCUUGCAUGUCCACAGUAAUGGAAUUCUCGGGUGCCAA: 16.6
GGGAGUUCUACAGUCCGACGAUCUACCUCUGACAUCAUUCUUUUUUUCUGAAAGGGGUAAUAAUUCUAGUUUUGAUAGACUCUGAGGAUCAUAUGAACAGGACAUUUUUCAUUUGUGAAUUUAAUGCUAUCUUUGGAAUUCUCGGGUGCCAA: 0.58
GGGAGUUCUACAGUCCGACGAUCAUCAUCAGAACCCUAAGAGUAGAUGGUUGCCCUGCAUCUUGGGCUCCAUCGGCCGAAACUUUCCCAAGCCAGGGUGUGCGGAGCUUCCCUGUACUGCAGCCAAGGUGACGUGGAAUUCUCGGGUGCCAA: 0.679
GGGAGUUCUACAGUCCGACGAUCCAGUGCUGGGAGCCAAAAAACUGUUGACGGUUUUUUGUGCAGCUCAAGAAAACUUUGAAAAGAACAUGCUUUAACUGAAGCAUUGGACUCUGCAGCUUUCUGUGUAAGGCUGGAAUUCUCGGGUGCCAA: 0.341
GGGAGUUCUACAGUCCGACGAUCAGAGAAAGAACACAGGCUUCCUGGUCUGCCCUCCCCCUCCGCUCACCAGGAGCUAAACUGAGAGGCUAAACUGUGUCAUGAAGCGCGUUGGAAACAGACUUCUGCCUACAUGGAAUUCUCGGGUGCCAA: 0.258
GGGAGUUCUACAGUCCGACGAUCGGCCCUGCAAGCACAUCAUGACCCUUUCUGGCAGCCUCUUGGUGCUCUGGGUAGUGAGGGAUGACCAGUCUUGUCCUGAGAAAUGUUUCUCUUAGUCUUUAAGUUCAAAGUGGAAUUCUCGGGUGCCAA: 0.252
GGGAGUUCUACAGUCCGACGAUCGUUAAGUAGUUGUUUUAAAAUACUUAAUAAAAUAAUUCUUUUCCUGUGGAAGAGAAAGAUGGUCUCCUGAGUUUUUUAAAAUAGCUCACUUGGUGUGAUAUGGCUGACUCUGGAAUUCUCGGGUGCCAA: 0.346
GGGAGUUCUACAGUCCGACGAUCACCCGCACACAUAAAGCGUCAAGUCUGGAAAACUCAUUCCUCAUACACAGGCCUCCUGUAGUCAUAGCAACAGAGAUGACCUAGGUGCACCCACCUUAGGUGGAGGACUUUGGAAUUCUCGGGUGCCAA: 0.572
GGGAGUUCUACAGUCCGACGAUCGUUUUGAAGGUUCUCAUGGUGCACAGCAGUGUGUAUGUGGUGUACAACAGUGUGUAUGCAGCCGUGCUUACAGCCUGUGGUUGCUACCUGUUGUACCAGUCUGACCAGUGUGGAAUUCUCGGGUGCCAA: 0.392

Set 2
Target: Hepatocyte nuclear factor 3-alpha (Foxa1, Mus musculus, UniProt P35582, residues 1-468, full length assumed)
Technique: EMSA with sequencing
Form: double-stranded DNA, one strand shown
Sample: in vitro
Tested at: 10 and 20 nM
Notes: whole designed probe, mean of two concentrations, ends assumed
Relative to: negative control set to 0
Reading: higher = stronger binding
Endpoint: normalised bound fraction
Residues (chain): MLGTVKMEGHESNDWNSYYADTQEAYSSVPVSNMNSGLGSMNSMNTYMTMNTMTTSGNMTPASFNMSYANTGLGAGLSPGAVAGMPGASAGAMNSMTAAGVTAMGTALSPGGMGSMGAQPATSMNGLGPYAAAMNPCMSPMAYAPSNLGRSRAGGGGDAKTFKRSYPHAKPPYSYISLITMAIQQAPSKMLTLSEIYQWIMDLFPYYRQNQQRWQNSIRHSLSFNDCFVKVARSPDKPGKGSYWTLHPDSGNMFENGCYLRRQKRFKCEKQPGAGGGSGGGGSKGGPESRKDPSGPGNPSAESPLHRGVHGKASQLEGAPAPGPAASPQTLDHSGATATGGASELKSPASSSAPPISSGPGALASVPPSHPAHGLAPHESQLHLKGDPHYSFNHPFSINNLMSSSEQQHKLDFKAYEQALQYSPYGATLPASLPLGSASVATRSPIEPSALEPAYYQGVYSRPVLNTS
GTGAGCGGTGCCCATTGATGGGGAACTGCCACGGACGTGCAGCCGTTAAAATATTAATGTCTGGCATGTGGCAAACATTTAAAATATGCTGAGACTTGGGAGCTGTTGAGCTGGGCCTTGTTGACACACCGCCTCACCTGGGTGTTGTTTGCTATGTAAATGCCAAGGATTCCTCCCTGAAGCTGGAACCTGCACTCCTCTTCTCACCCCTCATTTCCTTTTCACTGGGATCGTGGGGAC: 0.275 ratio
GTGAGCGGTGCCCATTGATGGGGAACGAACCTCTCCTTTTTCTAAAGACTTTTATAGGCATTTTTTTTTCTTCTTCTCAGCATGTGAACCAATGTGTAACTCAAATAGATGTTACTTTGCAGATTACTTAGATTGTTTTAAAAGGCTAGCTGTGTGGAGGAATGAGGAAGGAAGGGAGGCGGGAGTGGCTGGAGTTTTTTTTTTTCTCAGATGACCTAATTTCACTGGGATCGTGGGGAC: -0.0278 ratio
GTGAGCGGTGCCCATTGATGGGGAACATTCAAATACAGTGAACCCAGACCACATTCCAACAGCATTACCCAAGTGGTGAGGCTGAACTCTTCTGCAGATGCTTGTACACAAGACTTCATGTTTATTTTGTGACGTCACCTTCCTCTTTCCCCATTTCAAGTTGACCTTGTGTCGATTTTAACCTGGTTTTGTCTGTATAAACATGTTGGGATAAAGGAATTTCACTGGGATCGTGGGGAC: 0.359 ratio
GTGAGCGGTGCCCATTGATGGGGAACCACTCATAGTCTTGCTATCCTTCATATACAGAGATGACCCTCCCAAGCCTAAAATCAACAGGGGGAGGCATAGAGCTGTCCTTCTGGCTCTAATGTTTGCTTTATCCACGCCCATCCATCATCTTAGTCCAGCATGTGAGAGCCAGTGTGAAGTGAGCAGAATATGGCATAAGTATGGAGTCATACATCCTTATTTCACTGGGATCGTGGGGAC: 0.349 ratio
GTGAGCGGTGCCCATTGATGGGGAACGTCATTTATTTCATGTTGTCCTGAGATTGGATCTAAACTTTGAGCTCCTAATCATTGCTCAGATTGTGTGGCCTCGTAAGATTGTGCGTAATAAGTAAACAAGCATCTGTACACTTGTTAACTTAATGAGCTTCTGTATGTGACACTTTAAGCCTTTTTAAAAATTAAGTGCTGGGCTATGCTTGGTGTCTCATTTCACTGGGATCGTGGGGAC: 0.414 ratio
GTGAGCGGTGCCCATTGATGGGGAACCAGGACATAGCACACTTTTGAATTCATTTTACAACTATTTATTGAGTGCTTTTTATGTGCCAGATTCCCCCCAGCTCCCACTGGTGGTACAGTGTAAATATAGCTGTGAAAACATGCACTTTTCTCAGCCTTCATTATCATTCTAGTGAAGGGGGCAGATGGTAAACAACTGAACAATTAAGTAAACATGACATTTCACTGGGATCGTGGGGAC: 0.498 ratio
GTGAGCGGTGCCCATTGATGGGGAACGTTTTTGCACTGACGTGCACAGGCAAGCCCATATCTCTGCCTCTAAGCACATACTCTCTTTCCAAAGGTTGTGTAATGAGTGAGTCAGAGCTGTGTACACATAAGAAAGGAAAGAGGGCAAGGCAGGGCAGGAATTCAGCTCAATGAAGCCGCGGAGCCTCCATTTAAAAATGATACTAATGAGCCCACAGAATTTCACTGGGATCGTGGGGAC: 0.176 ratio
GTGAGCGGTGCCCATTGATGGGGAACCTGTATCCATCTGGGCAGTATCTTCTCTGGGCCTGGCCTGTCATAGGTGCTTCAGGTTTCCCCATTTGAACCAGATACCAGTCGGGTTACCGGATGTTTGCTTAAAATGAGTCATAGGCTTCCTGCTATTCCTGTGCTGCTTCCAGCTAGGACTGATCGAATCAGTCTGGATTTTCCTTGGGGTGATCCGCAGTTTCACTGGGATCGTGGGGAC: 0.135 ratio

Set 3
Target: Histone acetyltransferase KAT6A, both winged helices, GST fusion (KAT6A, Homo sapiens, UniProt Q92794, residues 1-181)
Technique: protein binding microarray
Form: double-stranded DNA, one strand shown
Sample: in vitro
Tested at: not given
Notes: 8-mer, flanks averaged, mean of 2 arrays, mostly near background
Relative to: not given
Reading: higher = stronger binding
Endpoint: E-score
Construct (chain): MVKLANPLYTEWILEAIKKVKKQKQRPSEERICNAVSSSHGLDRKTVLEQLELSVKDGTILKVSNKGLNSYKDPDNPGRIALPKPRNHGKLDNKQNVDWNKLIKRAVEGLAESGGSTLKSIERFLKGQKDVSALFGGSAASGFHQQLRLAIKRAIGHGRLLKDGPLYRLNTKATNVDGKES
GTTGGAAA: -0.112
ACAAAAGG: -0.0323
AGAAACGG: 0.226
CATACGAG: -0.0564
AACGTCTC: -0.113
ACGGGGGG: 0.0438
CTTTACGC: 0.223
AAGTGCGG: 0.0575
ACTAGTAG: 0.00872
AATGCGCA: 0.31
AGCGCCGC: 0.353
GCTCTGAA: -0.0635
AGTCGGCG: 0.229
GTGATAGA: -0.0531
AACGAAAG: -0.0118
CAACGGAG: 0.098
ACCCTTAC: -0.0723
GAGAGACA: -0.251
CATATATG: -0.0681

Set 4
Target: Eukaryotic initiation factor 4A-I (EIF4A1, Homo sapiens, UniProt P60842, residues 1-406, full length assumed)
Sequence of UniProt P60842 (whole entry, looked up): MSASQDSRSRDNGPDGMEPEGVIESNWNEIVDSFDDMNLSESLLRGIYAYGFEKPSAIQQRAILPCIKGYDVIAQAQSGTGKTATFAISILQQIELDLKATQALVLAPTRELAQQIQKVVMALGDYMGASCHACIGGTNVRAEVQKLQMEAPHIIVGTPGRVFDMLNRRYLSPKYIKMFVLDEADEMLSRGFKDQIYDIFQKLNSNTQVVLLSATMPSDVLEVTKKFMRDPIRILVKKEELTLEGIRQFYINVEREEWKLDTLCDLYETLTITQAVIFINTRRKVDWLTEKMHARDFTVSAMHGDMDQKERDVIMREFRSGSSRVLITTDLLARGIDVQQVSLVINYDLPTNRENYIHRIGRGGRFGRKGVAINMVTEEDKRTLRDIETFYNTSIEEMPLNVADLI
Technique: RNA Bind-n-Seq
Form: RNA
Sample: in vitro
Tested at: 90 pmol
Notes: 4-mer, random 30-nt RNA, single round
Together with: 3 µM iPr-DMDA-PatA, 2 mM ADP, 2 mM phosphate
Relative to: input library
Reading: higher = stronger binding
Endpoint: 4-mer enrichment
GCUA: 0.926 fold
GACU: 1.1 fold
CGAU: 1.13 fold
AAUG: 1.19 fold
CUGA: 1.07 fold
CUUG: 0.849 fold
UGAA: 1.31 fold
CAUG: 0.897 fold
GAAA: 1.49 fold
GCUU: 0.834 fold
CUCA: 1.03 fold
UUGG: 0.805 fold
CUAG: 0.971 fold
AGGA: 1.09 fold
UGUA: 1.08 fold
AACG: 1.17 fold
CACG: 0.941 fold
GUCA: 0.991 fold
CUAU: 1.08 fold
CUGC: 0.764 fold
GGCA: 0.747 fold
GGAC: 0.877 fold
CGCU: 0.787 fold
GUCU: 0.925 fold
GCCA: 0.839 fold

Set 5
Target: Interferon regulatory factor 5, full length, phosphomimetic (IRF5, Homo sapiens, UniProt Q13568-2, residues 1-514, S451D/S453D/S456D/S462D)
Technique: protein-binding microarray
Form: double-stranded DNA, one strand shown
Sample: in vitro
Tested at: 940 nM top
Notes: 60-bp whole probe
Together with: salmon DNA 0.4 mg/ml
Relative to: random background probes
Reading: higher = stronger binding
Endpoint: fitted relative affinity
Shared flanks, not repeated: GCCTAGCAC … GTCTTGATTCGCTTGACGCTGCTG
TCATGTCTGGAGTCTCTGACTGTGCTA: -0.111 z-score
TTCGATTTCGGGTTTCGATTAGTGCTA: 6.39 z-score
GACGGTTTCAGTATCGGGACGTGCTAG: 6.64 z-score
GACGGTATCGGACAGGGGACGTGCTAG: 2.36 z-score
GACTGTATCCTTATCCTGACGTGCTAG: 0.368 z-score
TTAGGTATCGACTTTCGGTCAGTGCTA: 6.4 z-score
GACGAACTGAGTTTCGAGTCGTGCTAG: 5.4 z-score
GACGGTACCGGTCTCGGGACGTGCTAG: 1.3 z-score
TTAGACCTGAGACTGGATTAGTGCTAG: -0.449 z-score
TGCCCTCTCCATACTTCCCAGTGCTAG: 1.13 z-score
TCATATATATATTGTTAGACTGTGCTA: 0.147 z-score
GACGGTCTCCTGCTCCTGACGTGCTAG: -0.144 z-score
GACGTTATCAGACTGGAGACGTGCTAG: -0.366 z-score
TATTCCCCATCACTCACTCTGTGCTAG: 1.37 z-score
GACTGTATCGGACTGGGGACGTGCTAG: 0.713 z-score
GACGGTTTCGGGTTTCGGGCCGTGCTA: 8.32 z-score
TTAGAGATCGGGTATCGATTAGTGCTA: 2.78 z-score
GACGATTTCAGTTCCTAGACGTGCTAG: 0.621 z-score
TTAGGTGTCGACTTTCGGTTAGTGCTA: 3.07 z-score

Some of these lines once more (set 4):
CGAU: 1.13 fold
GUCU: 0.925 fold
GCUA: 0.926 fold
CGCU: 0.787 fold
GACU: 1.1 fold
GUCA: 0.991 fold
CAUG: 0.897 fold
AACG: 1.17 fold
GAAA: 1.49 fold
GGCA: 0.747 fold
GCCA: 0.839 fold
CUGC: 0.764 fold
CUUG: 0.849 fold
AAUG: 1.19 fold
